Results from different studies.
Each line is one published result; not all experiments were run side by side. Values joined by “and” are separate records of one study, mostly repeats; a detail may differ.

SMILES	assay	system	conditions	how to read	quantity	value
C=CCN1CCC23c4c5ccc(OC(=O)c6ccc(NCc7cn(CCCCCCCCCCCC)nn7)cc6)c4OC2C(=O)CCC3(O)C1C5 (stereo not drawn)	–	human plasma	5 µM, 24 h, 37 °C	–	remaining compound	94.4%
C#Cc1c(F)ccc2cc(O)cc(-c3ncc4c(N5CC6CCC(C5)N6C(=O)OC(C)OC(=O)[C@@H](N)C(C)C)nc(OC[C@@]56CCCN5C[C@H](F)C6)nc4c3F)c12 (stereo partly drawn)	–	simulated gastric fluid	1 µM, 30 min, 37 °C	–	remaining prodrug	89.6%
C[C@H](NC(=O)CNC(=O)[C@@H]1CCCN1C(=O)[C@H](CO)NC(=O)CNC(=O)[C@H](CO)NC(=O)[C@H](C)NC(=O)[C@H](CC(N)=O)NC(=O)[C@H](C)NC(=O)[C@H](CO)NC(=O)[C@H](C)NC(=O)[C@H](CO)NC(=O)[C@@H]1CCCN1C(=O)[C@H](Cc1ccccc1)NC(=O)[C@H](C)NC(=O)[C@H](CO)NC(=O)[C@@H]1CCCN1C(=O)[C@H](Cc1ccccc1)NC(=O)[C@@H](NC(=O)[C@H](CC(=O)O)NC(=O)[C@@H](N)CO)[C@@H](C)O)C(=O)N[C@@H](CCCNC(=N)N)C(=O)N[C@@H](CO)C(=O)O	–	CHO-K1 culture medium	60 min	–	remaining peptide	1.02%
C=CCN1CCC23c4c5ccc(OC(=O)c6ccc(NC(=O)OC(C)(C)C)cc6)c4OC2C(=O)CCC3(O)C1C5 (stereo not drawn)	–	rat plasma	0 h, no inhibitor	–	remaining compound	95.8% and 104% and 100%
CC(C)[C@@H]1NC(=O)CNC(=O)[C@H](CC(N)=O)NC(=O)[C@H](CCCNC(=N)N)NC(=O)[C@H](Cc2ccc(O)cc2)NC(=O)[C@H](C(C)C)NC(=O)[C@@H](NC(=O)[C@@H](NC(=O)[C@H](CC(N)=O)NC(=O)[C@H](Cc2c[nH]c3ccccc23)NC(=O)[C@H](C)NC(=O)[C@H](Cc2ccccc2)NC(=O)CNC(=O)[C@H](CCCCN)NC(=O)[C@H](Cc2ccccc2)NC(=O)[C@H](Cc2ccccc2)NC(=O)[C@H](CCCCN)NC(=O)OCC2c3ccccc3-c3ccccc32)C(C)C)CSSC[C@@H](C(=O)N[C@@H](Cc2c[nH]cn2)C(=O)N[C@@H](CCCNC(=N)N)C(=O)N[C@@H](CCCNC(=N)N)C(=O)N[C@@H](C)C(=O)N[C@@H](CC(N)=O)C(N)=O)NC(=O)[C@H](C(C)C)NC(=O)[C@H](CCCNC(=N)N)NC1=O	HPLC	mouse mammary gland homogenate	2560 µM, 2.00 h, 37 °C, 50 mg/mL tissue	–	remaining peptide	81.8% and 86.6% and 87.9%
CSCC[C@H](NC(=O)[C@H](CCCNC(=N)N)NC(=O)[C@H](CCCNC(=N)N)NC(=O)[C@H](CCCCN)NC(=O)[C@H](C)NC(=O)[C@H](CCCNC(=N)N)NC(=O)CNC(=O)[C@@H](N)[C@@H](C)O)C(=O)N[C@@H](CCC(N)=O)C(=O)N[C@@H](Cc1ccc(O)cc1)C(=O)N[C@@H](CC(N)=O)C(=O)N[C@@H](CCCNC(=N)N)C(=O)N[C@@H](CCCNC(=N)N)C(N)=O	HPLC peak area	50% human serum	100 µM, 1 h, pH 7.4, 37 °C	relative to: 0 h	remaining peptide	36.5% and 40% and 38.8%
CC[C@H](C)[C@H](NC(=O)[C@@H](NC(=O)[C@H](CCCCN)NC(=O)[C@@H](N)[C@@H](C)O)C(C)C)C(=O)N[C@@H](CC(C)C)C(=O)N[C@@H](Cc1c[nH]cn1)C(N)=O	LC-MS	pronase digest	200 µM, 2 h, pH 7.5, 37 °C, added: pronase 2.5 µg/mL	–	remaining intact peptide	10%
C#Cc1c(F)ccc2cc(O)cc(-c3ncc4c(N5CC6CCC(C5)N6C(=O)OC(CCC)OC(=O)CCC)nc(OC[C@@]56CCCN5C[C@H](F)C6)nc4c3F)c12 (stereo partly drawn)	–	simulated gastric fluid	1 µM, 30 min, 37 °C	–	remaining prodrug	93.7%
Cc1nnc(-c2ccc(CC(=O)NCCCC[C@H](NC(=O)c3ccc(OCc4ccc(B(O)O)cc4)c(-c4nc5ccccc5c(=O)[nH]4)c3)C(=O)NCC(=O)NCC(=O)NCC(=O)N[C@@H](Cc3ccccc3)C(=O)N[C@@H](Cc3ccccc3)C(=O)O)cc2)nn1	UPLC-MS/MS	human serum	100 µM, 1.5 h, 37 °C	–	remaining compound	89.6%

A few entries again:
SMILES	assay	system	conditions	how to read	quantity	value
C#Cc1c(F)ccc2cc(O)cc(-c3ncc4c(N5CC6CCC(C5)N6C(=O)OC(CCC)OC(=O)CCC)nc(OC[C@@]56CCCN5C[C@H](F)C6)nc4c3F)c12 (stereo partly drawn)	–	simulated gastric fluid	1 µM, 30 min, 37 °C	–	remaining prodrug	93.7%
